# Experimental data collected from several papers.
# Every numbered part comes from another study and shows a few of its results, in no order. Substitutions count along the parent as printed.
# Chain of UniProt Q8RYC6 (whole entry, looked up): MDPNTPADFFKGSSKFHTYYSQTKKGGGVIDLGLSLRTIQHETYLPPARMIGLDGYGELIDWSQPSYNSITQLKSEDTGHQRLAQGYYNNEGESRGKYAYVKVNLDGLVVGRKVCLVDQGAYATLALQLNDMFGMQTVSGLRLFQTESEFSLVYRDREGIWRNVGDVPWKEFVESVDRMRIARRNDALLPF
# Chain of UniProt O23661 (whole entry, looked up): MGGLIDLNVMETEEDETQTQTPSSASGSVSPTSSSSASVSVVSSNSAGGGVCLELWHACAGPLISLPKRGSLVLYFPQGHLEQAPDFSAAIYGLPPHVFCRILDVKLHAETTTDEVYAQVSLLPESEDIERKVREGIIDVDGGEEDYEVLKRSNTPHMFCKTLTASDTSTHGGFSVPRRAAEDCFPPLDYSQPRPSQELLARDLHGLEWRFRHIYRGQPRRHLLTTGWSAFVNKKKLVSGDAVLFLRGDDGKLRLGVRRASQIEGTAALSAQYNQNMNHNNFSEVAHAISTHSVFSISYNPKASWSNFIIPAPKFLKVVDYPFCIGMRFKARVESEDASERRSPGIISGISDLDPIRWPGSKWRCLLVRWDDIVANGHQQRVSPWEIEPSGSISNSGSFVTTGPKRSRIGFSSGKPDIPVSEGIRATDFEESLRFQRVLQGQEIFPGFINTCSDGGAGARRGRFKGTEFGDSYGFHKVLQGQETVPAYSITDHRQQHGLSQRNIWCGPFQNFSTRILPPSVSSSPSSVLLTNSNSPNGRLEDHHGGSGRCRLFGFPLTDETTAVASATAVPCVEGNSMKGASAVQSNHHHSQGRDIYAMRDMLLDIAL
# Chain of UniProt Q9ZPY6 (whole entry, looked up): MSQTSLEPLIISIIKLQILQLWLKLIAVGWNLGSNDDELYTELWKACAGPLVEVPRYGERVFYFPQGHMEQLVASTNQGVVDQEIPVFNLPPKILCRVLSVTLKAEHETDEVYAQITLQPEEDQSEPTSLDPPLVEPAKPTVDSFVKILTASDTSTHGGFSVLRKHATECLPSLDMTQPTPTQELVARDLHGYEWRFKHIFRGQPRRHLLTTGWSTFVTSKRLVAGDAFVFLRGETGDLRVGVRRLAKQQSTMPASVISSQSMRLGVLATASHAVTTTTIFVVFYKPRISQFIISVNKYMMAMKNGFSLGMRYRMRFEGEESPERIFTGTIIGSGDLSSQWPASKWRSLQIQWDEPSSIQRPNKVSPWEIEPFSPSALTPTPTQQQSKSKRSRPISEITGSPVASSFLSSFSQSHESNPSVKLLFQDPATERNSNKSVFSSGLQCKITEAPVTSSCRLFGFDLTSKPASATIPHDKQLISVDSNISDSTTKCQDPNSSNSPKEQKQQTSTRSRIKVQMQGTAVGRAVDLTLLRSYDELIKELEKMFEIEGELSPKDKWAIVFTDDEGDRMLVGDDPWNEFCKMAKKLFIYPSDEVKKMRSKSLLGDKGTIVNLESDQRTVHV
# Chain of UniProt P93830 (whole entry, looked up): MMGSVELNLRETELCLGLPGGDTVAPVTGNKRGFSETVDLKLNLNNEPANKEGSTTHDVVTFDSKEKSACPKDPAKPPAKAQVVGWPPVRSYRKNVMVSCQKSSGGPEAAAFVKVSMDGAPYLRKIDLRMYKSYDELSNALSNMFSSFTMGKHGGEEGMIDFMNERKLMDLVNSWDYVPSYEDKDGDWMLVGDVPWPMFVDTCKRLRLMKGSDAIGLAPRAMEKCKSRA
# Chain of UniProt Q8RYC8 (whole entry, looked up): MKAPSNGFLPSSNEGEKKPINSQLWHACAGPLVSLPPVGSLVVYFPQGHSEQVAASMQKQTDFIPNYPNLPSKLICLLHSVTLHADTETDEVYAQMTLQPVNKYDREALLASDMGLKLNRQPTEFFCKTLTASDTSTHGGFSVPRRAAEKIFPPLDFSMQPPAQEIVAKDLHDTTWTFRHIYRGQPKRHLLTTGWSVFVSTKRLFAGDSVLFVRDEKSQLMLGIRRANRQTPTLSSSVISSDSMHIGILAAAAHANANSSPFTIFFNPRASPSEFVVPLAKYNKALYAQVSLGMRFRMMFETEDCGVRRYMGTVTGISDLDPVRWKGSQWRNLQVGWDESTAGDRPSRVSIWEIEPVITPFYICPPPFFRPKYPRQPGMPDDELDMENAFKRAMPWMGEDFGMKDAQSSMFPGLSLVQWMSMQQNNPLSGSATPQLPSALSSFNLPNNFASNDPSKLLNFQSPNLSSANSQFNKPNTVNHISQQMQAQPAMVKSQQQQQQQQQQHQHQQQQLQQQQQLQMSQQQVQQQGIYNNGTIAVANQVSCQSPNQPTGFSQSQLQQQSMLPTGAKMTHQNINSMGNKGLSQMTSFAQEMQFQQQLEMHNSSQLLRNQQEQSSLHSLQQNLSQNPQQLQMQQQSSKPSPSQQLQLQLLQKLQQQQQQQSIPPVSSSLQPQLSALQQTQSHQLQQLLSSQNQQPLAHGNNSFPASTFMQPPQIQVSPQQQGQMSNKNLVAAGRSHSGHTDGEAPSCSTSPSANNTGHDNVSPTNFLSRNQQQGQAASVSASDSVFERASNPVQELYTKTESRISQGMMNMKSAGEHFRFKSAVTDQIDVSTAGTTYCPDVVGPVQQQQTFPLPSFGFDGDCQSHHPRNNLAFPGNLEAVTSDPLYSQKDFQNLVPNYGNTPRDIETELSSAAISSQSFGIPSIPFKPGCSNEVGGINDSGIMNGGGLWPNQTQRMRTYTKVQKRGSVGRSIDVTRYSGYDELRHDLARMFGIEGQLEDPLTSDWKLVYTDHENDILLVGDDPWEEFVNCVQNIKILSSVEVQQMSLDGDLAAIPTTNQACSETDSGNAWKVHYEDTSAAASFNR
# Chain of UniProt Q84WU6 (whole entry, looked up): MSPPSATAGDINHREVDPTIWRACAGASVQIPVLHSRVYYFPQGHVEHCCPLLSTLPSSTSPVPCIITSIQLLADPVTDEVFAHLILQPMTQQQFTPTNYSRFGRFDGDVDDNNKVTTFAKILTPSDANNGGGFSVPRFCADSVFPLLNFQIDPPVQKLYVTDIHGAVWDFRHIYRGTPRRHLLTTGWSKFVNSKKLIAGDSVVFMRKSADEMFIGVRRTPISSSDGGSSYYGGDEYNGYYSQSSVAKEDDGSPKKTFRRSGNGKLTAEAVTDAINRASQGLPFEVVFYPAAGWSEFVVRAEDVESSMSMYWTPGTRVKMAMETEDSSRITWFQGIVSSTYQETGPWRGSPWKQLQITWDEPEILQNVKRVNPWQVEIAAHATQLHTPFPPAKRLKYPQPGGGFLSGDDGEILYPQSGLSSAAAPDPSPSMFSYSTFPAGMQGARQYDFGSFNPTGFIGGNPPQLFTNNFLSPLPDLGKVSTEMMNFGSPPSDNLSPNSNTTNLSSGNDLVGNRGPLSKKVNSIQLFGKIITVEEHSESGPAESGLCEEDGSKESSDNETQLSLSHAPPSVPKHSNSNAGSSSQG
# Chain of UniProt O24410 (whole entry, looked up): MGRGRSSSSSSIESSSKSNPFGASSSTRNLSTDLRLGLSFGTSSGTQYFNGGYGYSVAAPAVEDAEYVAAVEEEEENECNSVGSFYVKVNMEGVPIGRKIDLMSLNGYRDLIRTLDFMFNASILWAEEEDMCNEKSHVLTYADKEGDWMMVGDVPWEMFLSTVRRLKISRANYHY

# Sample 1 — method: RNA Bind-n-Seq; form: RNA; medium: in vitro; concentration: not given; notes: 4-mer, random 30-nt RNA, single round; together with: RocA, ADP, phosphate; relative to: input library; direction: higher = stronger binding
# Target: Eukaryotic initiation factor 4A-I (EIF4A1, Homo sapiens, UniProt P60842, residues 1-406, full length assumed)
# Chain of UniProt P60842 (whole entry, looked up): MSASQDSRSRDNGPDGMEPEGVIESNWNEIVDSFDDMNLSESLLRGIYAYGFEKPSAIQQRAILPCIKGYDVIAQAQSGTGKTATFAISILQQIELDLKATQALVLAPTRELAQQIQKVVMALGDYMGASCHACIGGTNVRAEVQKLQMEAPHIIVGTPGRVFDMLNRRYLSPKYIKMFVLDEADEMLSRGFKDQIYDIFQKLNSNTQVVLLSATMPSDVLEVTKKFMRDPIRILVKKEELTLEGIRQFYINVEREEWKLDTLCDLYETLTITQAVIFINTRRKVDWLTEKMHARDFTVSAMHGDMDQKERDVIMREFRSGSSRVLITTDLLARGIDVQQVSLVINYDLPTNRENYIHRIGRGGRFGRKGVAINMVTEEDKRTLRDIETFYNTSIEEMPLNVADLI
Strand,4-mer enrichment [fold]
AUCU,0.606
CGUC,0.656
GCUA,0.758
CUAG,0.788
GUAU,1.07
AGGC,0.863
GGCG,0.91
UGCG,0.847

# Sample 2 — method: RNA Bind-n-Seq; form: RNA; medium: in vitro; concentration: 365 nM; relative to: no-protein control; direction: higher = stronger binding
# Target: RNA binding protein fox-1 homolog 2, RRM domain, GST-SBP tag (RBFOX2, Homo sapiens, UniProt O43251-10, residues 100-194)
# Notes: natural RNA segment, single round, ends assumed
Strand,RBNS enrichment (R)
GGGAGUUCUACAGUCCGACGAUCUUGGGUCUAUUCCAGCUCAUUCAUUUUAUAUUGAAAACUAAUUUAAAAAAAAAUGGUGGCUUCAGCUCCAGCCCCUUUCCAAAAUUUUUCAACCCCACCCUGUUUGGAUUUGGAAUUCUCGGGUGCCAA,0.729
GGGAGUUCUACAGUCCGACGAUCCUGAAAAGUAUAAGAAUACAAUUUACUUUUCCCAAACUCUUUUUCCUUAUUUUUUUCUUUCAAAUAACUUUAAUUAUUUAAUCCCAUACUGAUUAAAAUAUGUCUGUCUAUGGAAUUCUCGGGUGCCAA,1.11
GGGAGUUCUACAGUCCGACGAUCUUUUGUUUUAAGUCUUCAAAUAUCUUGAGAAAUAGUAGACUGUAUGUUGAAAAUUGUACUGAAAUAAAGUAGAAAAUUGUUACGUACCAUAUUUGUAACUAUCAACUUUUUGGAAUUCUCGGGUGCCAA,0.694
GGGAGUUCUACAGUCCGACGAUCUCUGCCCCUGGGUCCAUGUAUCCACCUAGCUCUGGUACCCUCCAGAGGUGCCAUCUCUACCUCUGACACAGCCUGUCUGCCUUGAGACUGAGGAAGGCACAGGCAAGCAAUGGAAUUCUCGGGUGCCAA,0.59
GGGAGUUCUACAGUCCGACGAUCCCCAAAGUACGGGUAAUUCAACCUGCACAGUUUUCUUUCACUCAAAGUGUUCAGCACUUGUGAGUGAAAAAUCAUGUAAUUAUCUGUAAAUAUGUAGCUAACAAAUUGACUGGAAUUCUCGGGUGCCAA,0.533
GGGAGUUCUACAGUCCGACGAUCUUGGGCAAAUGAAACCAUAAACUCCGACUGGCUUCUGUAGAUGCCAAAGGGCUCUUUUUCAGCUAACCCUGGGAAGGCUCUGUGGGAGGGAGGUCGGAGCCAGCUGUUUCUGGAAUUCUCGGGUGCCAA,0.41
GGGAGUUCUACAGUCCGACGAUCCUUGGGAGAGAAGCCAUUUCCCCUACCUCUAACGAGCGUAGUUUUCUGUCUGAAUGGCCCCCCUUUUCAUGCACGCUCGUUCUUAAGAGACGCACCAUCCGCAGGCAGCGUGGAAUUCUCGGGUGCCAA,0.716
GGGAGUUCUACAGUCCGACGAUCAUAUCAAGUAACAAUAUGAUUAUUAUUUUUUUAUUCCCCCAAAGCGGGCUUGCUGCUUCACCCUUGGGGAUGAAAUAAUGGAAGCUGGUUAAAGUGGAUGAGGUUGGAAAUGGAAUUCUCGGGUGCCAA,0.431

# Sample 3 — Sequence: B1 (IAA13); method: two-hybrid; direction: higher = firmer interaction
# B1: IAA13 (Arabidopsis thaliana, UniProt Q38831); chain MITELEMGKGESELELGLGLSLGGGTAAKIGKSGGGGAWGERGRLLTAKDFPSVGSKRAADSASHAGSSPPRSSSQVVGWPPIGSHRMNSLVNNQATKSAREEEEAGKKKVKDDEPKDVTKKVNGKVQVGFIKVNMDGVAIGRKVDLNAHSSYENLAQTLEDMFFRTNPGTVGLTSQFTKPLRLLDGSSEFVLTYEDKEGDWMLVGDVPWRMFINSVKRLRVMKTSEANGLAARNQEPNERQRKQPV
partner,setting,scale,positive tests
"IAA32 (Arabidopsis thaliana, UniProt Q8RYC6)",,relative to: out of 4 tests,0
"ETT (Arabidopsis thaliana, UniProt O23661)",,relative to: out of 2 tests,0
"ARF11 500-622 (Arabidopsis thaliana, UniProt Q9ZPY6)",,relative to: out of 2 tests,0
"ARF17 (Arabidopsis thaliana, UniProt Q84WU6)",weak activation fusion,relative to: out of 4 tests,1
"IAA20 (Arabidopsis thaliana, UniProt O24410)",weak activation fusion,relative to: out of 4 tests,2
"ARF19 948-1086 (Arabidopsis thaliana, UniProt Q8RYC8)",,relative to: out of 3 tests,2
"IAA17 (Arabidopsis thaliana, UniProt P93830)",,relative to: out of 4 tests,2

# Further values, each from its own experiment — parent: viral docking peptide; KKAKRRLFTISDS
Change,target,test,test system,setting,scale,quantity,result
KKAKRRLLTISDS [F8L],"CCNA1, cyclin fold, Cln2 fusion (human)","yeast growth competition, sequencing",yeast,weak parent motif,"relative to: not given, higher = stronger binding",normalised enrichment score,0.911

# Some of these lines once more (sample 1):
Strand,4-mer enrichment [fold]
AGGC,0.863
CGUC,0.656
CUAG,0.788
